{"data": "Experimental data gathered from unrelated publications", "note": "Every numbered part comes from another study and shows a few of its results, in no order.", "UniProt P42336, sequence (whole entry, unmodified, looked up)": "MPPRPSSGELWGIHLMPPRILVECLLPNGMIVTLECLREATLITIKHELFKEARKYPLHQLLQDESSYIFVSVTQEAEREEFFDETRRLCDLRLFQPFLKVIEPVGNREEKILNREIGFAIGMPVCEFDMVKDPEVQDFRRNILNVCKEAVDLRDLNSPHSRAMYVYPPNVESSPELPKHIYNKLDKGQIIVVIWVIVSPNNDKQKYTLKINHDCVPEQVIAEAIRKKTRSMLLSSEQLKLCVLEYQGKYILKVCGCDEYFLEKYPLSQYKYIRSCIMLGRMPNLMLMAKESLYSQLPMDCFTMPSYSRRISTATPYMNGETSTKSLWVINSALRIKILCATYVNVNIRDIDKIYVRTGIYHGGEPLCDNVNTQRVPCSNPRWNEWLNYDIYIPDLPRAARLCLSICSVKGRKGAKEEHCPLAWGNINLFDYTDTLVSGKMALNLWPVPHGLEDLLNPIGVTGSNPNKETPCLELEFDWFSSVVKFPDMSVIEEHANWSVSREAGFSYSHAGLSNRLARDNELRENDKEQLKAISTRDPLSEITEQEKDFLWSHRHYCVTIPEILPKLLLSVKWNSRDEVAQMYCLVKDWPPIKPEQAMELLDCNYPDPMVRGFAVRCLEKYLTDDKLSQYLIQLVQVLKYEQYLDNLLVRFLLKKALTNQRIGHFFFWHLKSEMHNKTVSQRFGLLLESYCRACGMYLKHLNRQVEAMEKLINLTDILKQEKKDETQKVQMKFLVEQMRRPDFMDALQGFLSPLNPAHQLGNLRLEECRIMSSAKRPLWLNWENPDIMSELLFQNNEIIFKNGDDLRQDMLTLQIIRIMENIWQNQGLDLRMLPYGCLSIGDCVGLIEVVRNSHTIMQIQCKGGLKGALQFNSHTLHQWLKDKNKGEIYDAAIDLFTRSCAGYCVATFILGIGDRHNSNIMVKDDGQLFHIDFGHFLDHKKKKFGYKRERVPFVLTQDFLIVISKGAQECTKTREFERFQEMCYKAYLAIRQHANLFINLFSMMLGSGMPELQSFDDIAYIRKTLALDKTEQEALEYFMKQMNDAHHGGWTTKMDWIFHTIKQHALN", "UniProt P15056, sequence (whole entry, unmodified, looked up)": "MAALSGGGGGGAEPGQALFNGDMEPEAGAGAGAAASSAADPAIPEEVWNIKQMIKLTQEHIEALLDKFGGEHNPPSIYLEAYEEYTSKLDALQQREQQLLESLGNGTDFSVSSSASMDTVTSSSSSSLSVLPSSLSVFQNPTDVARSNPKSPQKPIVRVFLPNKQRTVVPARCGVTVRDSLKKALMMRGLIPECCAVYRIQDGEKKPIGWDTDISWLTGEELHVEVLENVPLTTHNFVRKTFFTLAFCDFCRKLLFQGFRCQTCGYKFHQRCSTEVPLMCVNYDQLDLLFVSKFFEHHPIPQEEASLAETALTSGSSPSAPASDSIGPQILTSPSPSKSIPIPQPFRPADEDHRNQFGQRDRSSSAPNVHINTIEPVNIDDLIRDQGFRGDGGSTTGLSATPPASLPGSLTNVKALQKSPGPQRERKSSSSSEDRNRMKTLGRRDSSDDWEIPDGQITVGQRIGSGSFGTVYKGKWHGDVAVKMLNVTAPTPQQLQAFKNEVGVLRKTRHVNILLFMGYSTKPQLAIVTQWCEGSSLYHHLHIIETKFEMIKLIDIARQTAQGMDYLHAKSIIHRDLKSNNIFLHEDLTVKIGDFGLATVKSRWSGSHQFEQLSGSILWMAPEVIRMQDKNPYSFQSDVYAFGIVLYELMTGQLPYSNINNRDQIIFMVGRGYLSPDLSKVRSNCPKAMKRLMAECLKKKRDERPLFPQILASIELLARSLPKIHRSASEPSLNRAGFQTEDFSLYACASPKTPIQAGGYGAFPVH", "UniProt Q12866, sequence (whole entry, looked up)": "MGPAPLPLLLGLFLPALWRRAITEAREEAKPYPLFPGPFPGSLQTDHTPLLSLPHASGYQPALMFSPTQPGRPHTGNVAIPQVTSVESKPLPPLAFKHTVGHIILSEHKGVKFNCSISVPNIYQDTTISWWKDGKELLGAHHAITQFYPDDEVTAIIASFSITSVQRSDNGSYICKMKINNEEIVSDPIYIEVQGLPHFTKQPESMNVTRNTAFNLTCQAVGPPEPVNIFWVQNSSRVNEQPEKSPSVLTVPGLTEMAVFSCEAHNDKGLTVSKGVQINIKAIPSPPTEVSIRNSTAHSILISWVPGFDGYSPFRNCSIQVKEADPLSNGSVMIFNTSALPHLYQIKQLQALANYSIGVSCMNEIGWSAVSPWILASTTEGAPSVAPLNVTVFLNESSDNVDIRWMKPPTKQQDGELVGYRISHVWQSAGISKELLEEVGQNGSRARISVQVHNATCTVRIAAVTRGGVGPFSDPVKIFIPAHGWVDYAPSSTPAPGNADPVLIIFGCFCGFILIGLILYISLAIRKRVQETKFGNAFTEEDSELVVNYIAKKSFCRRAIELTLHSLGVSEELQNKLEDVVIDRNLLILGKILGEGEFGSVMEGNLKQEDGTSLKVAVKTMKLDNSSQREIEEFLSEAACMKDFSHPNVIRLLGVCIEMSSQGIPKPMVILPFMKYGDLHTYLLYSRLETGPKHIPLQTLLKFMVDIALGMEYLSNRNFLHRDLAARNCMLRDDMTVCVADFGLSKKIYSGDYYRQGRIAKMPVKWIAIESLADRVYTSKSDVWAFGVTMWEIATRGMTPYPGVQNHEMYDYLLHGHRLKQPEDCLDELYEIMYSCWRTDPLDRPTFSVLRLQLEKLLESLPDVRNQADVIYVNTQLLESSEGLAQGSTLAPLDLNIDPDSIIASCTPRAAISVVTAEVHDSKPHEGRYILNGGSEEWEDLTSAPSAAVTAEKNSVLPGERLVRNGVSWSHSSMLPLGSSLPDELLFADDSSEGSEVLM", "UniProt Q9UBF8, sequence (whole entry, looked up)": "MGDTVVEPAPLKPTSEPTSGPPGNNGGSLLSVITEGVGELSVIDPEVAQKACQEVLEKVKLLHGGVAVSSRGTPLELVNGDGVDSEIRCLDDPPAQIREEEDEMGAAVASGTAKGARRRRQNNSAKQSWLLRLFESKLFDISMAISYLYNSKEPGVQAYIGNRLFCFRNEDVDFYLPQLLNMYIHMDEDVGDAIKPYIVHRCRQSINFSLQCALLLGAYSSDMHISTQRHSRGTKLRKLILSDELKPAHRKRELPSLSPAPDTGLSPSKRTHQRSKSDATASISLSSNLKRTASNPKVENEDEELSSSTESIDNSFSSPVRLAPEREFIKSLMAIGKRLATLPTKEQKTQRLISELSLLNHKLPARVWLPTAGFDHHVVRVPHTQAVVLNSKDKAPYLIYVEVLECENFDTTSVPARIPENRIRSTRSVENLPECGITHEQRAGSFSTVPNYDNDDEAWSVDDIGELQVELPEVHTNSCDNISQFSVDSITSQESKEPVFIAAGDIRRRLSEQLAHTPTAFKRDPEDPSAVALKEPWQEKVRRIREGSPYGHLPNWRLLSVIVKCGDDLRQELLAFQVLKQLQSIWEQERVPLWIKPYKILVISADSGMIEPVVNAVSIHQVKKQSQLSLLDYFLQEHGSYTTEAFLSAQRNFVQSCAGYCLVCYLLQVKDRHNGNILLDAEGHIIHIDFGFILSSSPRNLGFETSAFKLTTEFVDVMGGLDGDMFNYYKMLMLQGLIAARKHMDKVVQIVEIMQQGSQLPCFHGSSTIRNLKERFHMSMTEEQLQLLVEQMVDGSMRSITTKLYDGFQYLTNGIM"}
{"data": "Set 1", "SMILES": "CC(=O)N1CCC(c2ccc(C(=O)NC3=NCCN3)cc2C(F)(F)F)CC1", "concentration": "1 µM"}
{"target": "LATS1 (Homo sapiens, UniProt O95835)", "assay": "cell-free assay, competition with immobilised ligand", "remaining binding": "93%"}
{"target": "LIM domain kinase 1 (LIMK1, Homo sapiens, UniProt P53667)", "assay": "cell-free assay, competition with immobilised ligand", "remaining binding": "100%"}
{"target": "STK24 (Homo sapiens, UniProt Q9Y6E0)", "assay": "cell-free assay, competition with immobilised ligand", "remaining binding": "97%"}
{"target": "MATK (Homo sapiens, UniProt P42679)", "assay": "cell-free assay, competition with immobilised ligand", "remaining binding": "100%"}
{"target": "RIPK2 (Homo sapiens, UniProt O43353)", "assay": "cell-free assay, competition with immobilised ligand", "remaining binding": "100%"}
{"target": "RET (Homo sapiens, UniProt P07949, V804M)", "assay": "cell-free assay, competition with immobilised ligand", "remaining binding": "100%"}
{"target": "BRAF (Homo sapiens, UniProt P15056, V600E)", "assay": "cell-free assay, competition with immobilised ligand", "remaining binding": "100%"}
{"target": "MAPK4 (Homo sapiens, UniProt P31152)", "assay": "cell-free assay, competition with immobilised ligand", "remaining binding": "87%"}
{"target": "PI4KB (Homo sapiens, UniProt Q9UBF8)", "assay": "cell-free assay, competition with immobilised ligand", "remaining binding": "91%"}
{"target": "Tyrosine-protein kinase ABL1, phosphorylated (ABL1, Homo sapiens, UniProt P00519, F317I)", "assay": "binding", "remaining binding": "94%"}
{"target": "TYRO3 (Homo sapiens, UniProt Q06418)", "assay": "cell-free assay, competition with immobilised ligand", "remaining binding": "89%"}
{"target": "CDK5 (Homo sapiens, UniProt Q00535)", "assay": "cell-free assay, competition with immobilised ligand", "remaining binding": "100%"}
{"target": "EPHA2 (Homo sapiens, UniProt P29317)", "assay": "cell-free assay, competition with immobilised ligand", "remaining binding": "94%"}
{"target": "PRKACA (Homo sapiens, UniProt P17612)", "assay": "cell-free assay, competition with immobilised ligand", "remaining binding": "100%"}
{"target": "BRAF (Homo sapiens, UniProt P15056)", "assay": "cell-free assay, competition with immobilised ligand", "remaining binding": "100%"}
{"target": "ALK (Homo sapiens, UniProt Q9UM73)", "assay": "cell-free assay, competition with immobilised ligand", "remaining binding": "89%"}
{"target": "PIK3CA (Homo sapiens, UniProt P42336, E545K)", "assay": "cell-free assay, competition with immobilised ligand", "remaining binding": "87%"}
{"target": "STK38L (Homo sapiens, UniProt Q9Y2H1)", "assay": "binding, competition with immobilised ligand", "remaining binding": "90%"}
{"target": "MERTK (Homo sapiens, UniProt Q12866)", "assay": "cell-free assay, competition with immobilised ligand", "remaining binding": "100%"}
{"target": "PIK3CA (Homo sapiens, UniProt P42336, E545A)", "assay": "cell-free assay, competition with immobilised ligand", "remaining binding": "100%"}
{"target": "CSNK2A1 (Homo sapiens, UniProt P68400)", "assay": "cell-free assay, competition with immobilised ligand", "remaining binding": "86%"}
{"target": "MAPK3 (Homo sapiens, UniProt P27361)", "assay": "cell-free assay, competition with immobilised ligand", "remaining binding": "100%"}
{"target": "CSNK1G2 (Homo sapiens, UniProt P78368)", "assay": "cell-free assay, competition with immobilised ligand", "remaining binding": "100%"}
{"target": "MAP4K1 (Homo sapiens, UniProt Q92918)", "assay": "cell-free assay, competition with immobilised ligand", "remaining binding": "100%"}
{"target": "EPHB3 (Homo sapiens, UniProt P54753)", "assay": "cell-free assay, competition with immobilised ligand", "remaining binding": "93%"}
{"data": "Set 2", "target": "NUAK family SNF1-like kinase 1 (NUAK1, Homo sapiens, UniProt O60285)", "effect on": "enzyme activity", "mode": "inhibitor", "concentration": "0.5 µM", "relative to": "control", "UniProt O60285, sequence (whole entry, looked up)": "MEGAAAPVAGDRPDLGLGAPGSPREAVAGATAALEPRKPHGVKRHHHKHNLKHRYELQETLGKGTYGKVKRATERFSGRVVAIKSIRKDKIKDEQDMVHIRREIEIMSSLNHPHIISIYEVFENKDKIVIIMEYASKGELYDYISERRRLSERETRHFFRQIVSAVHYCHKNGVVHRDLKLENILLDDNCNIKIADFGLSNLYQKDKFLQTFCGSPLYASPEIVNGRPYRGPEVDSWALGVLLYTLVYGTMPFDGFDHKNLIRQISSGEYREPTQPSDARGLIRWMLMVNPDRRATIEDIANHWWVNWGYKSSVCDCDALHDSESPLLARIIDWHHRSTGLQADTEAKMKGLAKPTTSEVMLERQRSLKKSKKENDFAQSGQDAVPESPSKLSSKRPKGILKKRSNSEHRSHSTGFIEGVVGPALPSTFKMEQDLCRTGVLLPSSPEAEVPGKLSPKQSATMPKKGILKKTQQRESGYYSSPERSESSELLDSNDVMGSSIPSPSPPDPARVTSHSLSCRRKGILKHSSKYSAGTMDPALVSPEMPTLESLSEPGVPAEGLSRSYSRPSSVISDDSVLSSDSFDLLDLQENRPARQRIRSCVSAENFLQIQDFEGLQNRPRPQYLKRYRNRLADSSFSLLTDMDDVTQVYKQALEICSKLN"}
{"Structure (SMILES)": "O=Nc1c(-c2c(O)[nH]c3ccccc23)[nH]c2ccccc12", "remaining activity [%]": 8.89}
{"Structure (SMILES)": "O=C(O)/C=C/c1cc(Br)c(Br)c(Br)c1Br", "remaining activity [%]": 87.6}
{"Structure (SMILES)": "Nc1nc(Nc2ccc(S(N)(=O)=O)cc2)nn1C(=S)Nc1c(F)cccc1F", "remaining activity [%]": 2.13}
{"Structure (SMILES)": "COc1cc2c(N3CCN(C(=O)Nc4ccc(OC(C)C)cc4)CC3)ncnc2cc1OCCCN1CCCCC1", "remaining activity [%]": 104}
{"Structure (SMILES)": "CC(C)N(CCC(=O)c1ccc2ccccc2c1)Cc1ccccc1", "remaining activity [%]": 97.1}
{"Structure (SMILES)": "O=C(c1ccccc1)c1ccc(N2CCOCC2)cc1O", "remaining activity [%]": 94.9}
{"Structure (SMILES)": "Clc1ccc(Nc2nnc(Cc3ccncc3)c3ccccc23)cc1", "remaining activity [%]": 112}
{"Structure (SMILES)": "CCN(CC)CCCCN1c2ccccc2Oc2ccc(Cl)cc21", "remaining activity [%]": 90.7}
{"Structure (SMILES)": "N#CC(c1ccnc(NCCc2cccnc2)n1)c1nc2ccccc2s1 (centres unmarked)", "remaining activity [%]": 91.8}
{"Structure (SMILES)": "CCCCc1c(-c2ccc(O)cc2)[nH]c2nccnc12", "remaining activity [%]": 19.1}
{"Structure (SMILES)": "CC(C)(C)c1nc2c3cc[nH]c(=O)c3c3cc(F)ccc3c2[nH]1", "remaining activity [%]": 3.04}
{"Structure (SMILES)": "c1cc(-c2cnn3cc(-c4ccc(OCCN5CCCCC5)cc4)cnc23)ccn1", "remaining activity [%]": 26.6}
{"Structure (SMILES)": "CNc1cc2c(Nc3cccc(Br)c3)ncnc2cn1", "remaining activity [%]": 97.5}
{"Structure (SMILES)": "O=C1c2ccccc2-c2nc3nnnn3nc21", "remaining activity [%]": 89.8}
{"Structure (SMILES)": "CC(C)n1cnc2c(Nc3cccc(Cl)c3)nc(NCCO)nc21", "remaining activity [%]": 67.3}
{"Structure (SMILES)": "C[C@@H](N)[C@H]1CC[C@H](C(=O)Nc2ccncc2)CC1", "remaining activity [%]": 91.6}
{"Structure (SMILES)": "O=C1NC(=O)/C(=C/c2ccc3c(c2)OC(F)(F)O3)S1", "remaining activity [%]": 91.8}
{"Structure (SMILES)": "NC(=O)c1cccc(-c2cc(Nc3ccc(OC(F)(F)F)cc3)ncn2)c1", "remaining activity [%]": 96.7}
{"Structure (SMILES)": "FC(F)(F)c1ccc(/C=C/c2nc(COc3ccc(CCCCn4ccnn4)cc3)co2)cc1", "remaining activity [%]": 103}
{"Structure (SMILES)": "N#C/C(=C(/N)SC1C=CC=CC1)c1cccc(C(O)c2ccncc2)c1 (centres unmarked)", "remaining activity [%]": 107}
{"Structure (SMILES)": "O=c1c(-c2ccc(F)cc2)c(-c2ccncc2)[nH]n1-c1ccc(Cl)cc1", "remaining activity [%]": 89.1}
{"Structure (SMILES)": "NC(=O)c1ccc(-c2nc(-c3ccc4c(c3)OCCO4)c(-c3ccccn3)[nH]2)cc1", "remaining activity [%]": 93.4}
{"data": "Set 3", "target": "Calcium/calmodulin-dependent protein kinase type II subunit alpha (CAMK2A, Homo sapiens, UniProt Q9UQM7)", "effect on": "enzyme activity", "mode": "inhibitor", "concentration": "10 µM", "UniProt Q9UQM7, sequence (whole entry, looked up)": "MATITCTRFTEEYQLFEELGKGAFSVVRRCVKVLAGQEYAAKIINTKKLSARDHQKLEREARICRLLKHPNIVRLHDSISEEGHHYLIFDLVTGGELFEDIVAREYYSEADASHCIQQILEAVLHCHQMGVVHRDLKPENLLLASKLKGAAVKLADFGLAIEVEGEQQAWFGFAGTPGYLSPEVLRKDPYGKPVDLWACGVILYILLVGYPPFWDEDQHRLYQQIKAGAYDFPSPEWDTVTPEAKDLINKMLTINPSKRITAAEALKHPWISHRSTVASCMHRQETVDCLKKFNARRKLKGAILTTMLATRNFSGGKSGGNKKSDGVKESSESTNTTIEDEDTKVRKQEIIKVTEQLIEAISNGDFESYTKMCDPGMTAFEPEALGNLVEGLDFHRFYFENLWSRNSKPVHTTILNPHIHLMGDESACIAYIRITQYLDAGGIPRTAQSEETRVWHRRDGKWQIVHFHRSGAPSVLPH"}
{"Compound": "C[C@H]1[C@H]2CC[C@H]3[C@@H]4CC=C5C[C@@H](N(C)C)CC[C@]5(C)[C@H]4CC[C@]23CN1C", "inhibition [%]": -96}
{"Compound": "OC[C@H]1O[C@@H](Oc2cc3c(O)cc(O)cc3[o+]c2-c2ccc(O)c(O)c2)[C@H](O)[C@@H](O)[C@@H]1O", "inhibition [%]": 13}
{"Compound": "C=C(C)[C@@H](O)COc1c2ccoc2cc2oc(=O)ccc12", "inhibition [%]": -26}
{"Compound": "CC(=O)OC/C1=C\\[C@H]2[C@@H](OC(=O)/C=C/c3ccccc3)[C@@H](C)C[C@]2(OC(C)=O)C(=O)/C(C)=C/[C@@H]2[C@H](CC1)C2(C)C", "inhibition [%]": 16}
{"Compound": "C[C@@H]1O[C@@H](Oc2c(-c3cc(O)c(O)c(O)c3)oc3cc(O)cc(O)c3c2=O)[C@H](O)[C@H](O)[C@H]1O", "inhibition [%]": 5}
{"Compound": "O=C(O)Cc1ccc(O)cc1", "inhibition [%]": -10}
{"Compound": "OC[C@H]1O[C@H](OC[C@H]2O[C@H](OC[C@H]3O[C@H](O[C@]4(CO)O[C@H](CO)[C@@H](O)[C@@H]4O)[C@H](O)[C@@H](O)[C@@H]3O)[C@H](O)[C@@H](O)[C@H]2O)[C@H](O)[C@@H](O)[C@H]1O", "inhibition [%]": -32}
{"Compound": "Cn1cnc2c(ncn2[C@@H]2O[C@H](CO)[C@@H](O)[C@H]2O)c1=O", "inhibition [%]": -3}
{"Compound": "CCN(CC)CCOC(=O)c1ccc(N)cc1Cl", "inhibition [%]": 8}
{"Compound": "O=C(O)c1cccnc1Nc1cccc(C(F)(F)F)c1", "inhibition [%]": 1}
{"Compound": "O=[N+]([O-])c1cn2c(n1)OC[C@@H](OCc1ccc(OC(F)(F)F)cc1)C2", "inhibition [%]": -4}
{"data": "Set 4", "species": "mouse", "matrix": "microsomes or S9", "concentration": "2 µM", "time": "0.5 h"}
{"Compound": "COc1cnc(C(=O)N2CCCC23CCOC3)nc1 (centres unmarked)", "remaining compound [%]": "> 100"}
{"Compound": "CCC(CC)C(=O)N(C)c1ccc(-c2ccccc2)nn1", "remaining compound [%]": 17.4}
{"Compound": "CC(C)n1ncc2c1NC(=O)CC21C(=O)Nc2ccccc21 (centres unmarked)", "remaining compound [%]": 21.5}
{"Compound": "CC(NC(=O)c1cn(C)nc1-c1ccc2c(c1)OCCCO2)c1ccc(-n2cncn2)cc1 (centres unmarked)", "remaining compound [%]": 64.9}
{"Compound": "NC(CCc1c(Cl)cccc1Cl)c1ccc(Cl)cc1Cl (centres unmarked)", "remaining compound [%]": 1.24}
{"Compound": "Cc1coc(C)c1C(=O)CC1(O)C(=O)Nc2cc(Cl)cc(Cl)c21 (centres unmarked)", "remaining compound [%]": 56.6}
{"Compound": "CC(=O)Nc1ccc(N2N=C(c3ccc(O)cc3)C(C)CC2=O)cc1 (centres unmarked)", "remaining compound [%]": 55.9}
{"Compound": "COC(=O)c1cc2cc(-c3ccccc3)c3ccccc3c2o1", "remaining compound [%]": 73.5}
{"Compound": "CC(=O)N1CCc2[nH]cnc2C12CCN(C(=O)C(F)c1ccccc1)CC2 (centres unmarked)", "remaining compound [%]": 79.7}
{"Compound": "Cc1c(C)n2c3c(=O)[nH]c(=O)n(C)c3nc2n1CCN(C)C", "remaining compound [%]": 77.9}
{"Compound": "O=C(N[C@@H]1CC[C@H]2Oc3ccccc3N[C@H]2[C@@H]1O)c1ccccn1", "remaining compound [%]": 2.27}
{"Compound": "Cc1nnc2c3ccccc3nc(-c3ccccc3Cl)n12", "remaining compound [%]": 0.487}
{"Compound": "CS(=O)(=O)N1CCC[C@H]1C(=O)N[C@H]1C[C@H](c2cc(=O)[nH]c(C3CC3)n2)C1", "remaining compound [%]": "> 99"}
{"Compound": "O=C(Cn1cc(C(=O)N2CCN(C3CCCC3)CC2)ccc1=O)Nc1nccs1", "remaining compound [%]": 90.7}
{"Compound": "COC(=O)c1sccc1NC(=O)Nc1c(C)nn(Cc2ccccc2C)c1C", "remaining compound [%]": 1.34}
{"Compound": "COC(=O)c1ccc2nc(Nc3nc4ccc(F)cc4s3)sc2c1", "remaining compound [%]": 2.65}
{"note": "Repeated from above (set 3):"}
{"Compound": "C[C@H]1[C@H]2CC[C@H]3[C@@H]4CC=C5C[C@@H](N(C)C)CC[C@]5(C)[C@H]4CC[C@]23CN1C", "inhibition [%]": -96}
{"Compound": "OC[C@H]1O[C@@H](Oc2cc3c(O)cc(O)cc3[o+]c2-c2ccc(O)c(O)c2)[C@H](O)[C@@H](O)[C@@H]1O", "inhibition [%]": 13}
{"Compound": "C=C(C)[C@@H](O)COc1c2ccoc2cc2oc(=O)ccc12", "inhibition [%]": -26}
{"Compound": "CC(=O)OC/C1=C\\[C@H]2[C@@H](OC(=O)/C=C/c3ccccc3)[C@@H](C)C[C@]2(OC(C)=O)C(=O)/C(C)=C/[C@@H]2[C@H](CC1)C2(C)C", "inhibition [%]": 16}
{"Compound": "C[C@@H]1O[C@@H](Oc2c(-c3cc(O)c(O)c(O)c3)oc3cc(O)cc(O)c3c2=O)[C@H](O)[C@H](O)[C@H]1O", "inhibition [%]": 5}
{"Compound": "O=C(O)Cc1ccc(O)cc1", "inhibition [%]": -10}
{"Compound": "OC[C@H]1O[C@H](OC[C@H]2O[C@H](OC[C@H]3O[C@H](O[C@]4(CO)O[C@H](CO)[C@@H](O)[C@@H]4O)[C@H](O)[C@@H](O)[C@@H]3O)[C@H](O)[C@@H](O)[C@H]2O)[C@H](O)[C@@H](O)[C@H]1O", "inhibition [%]": -32}
{"Compound": "Cn1cnc2c(ncn2[C@@H]2O[C@H](CO)[C@@H](O)[C@H]2O)c1=O", "inhibition [%]": -3}
